Published values gathered from unrelated publications.
Numbered parts are unrelated; each lists some results of a single study.

Block 1
Target: Interferon regulatory factor 7, full length, phosphomimetic (IRF7, Homo sapiens, UniProt Q92985, residues 1-503, S471D/S472D/S475D/S476D/S477D/S483D/S484D/S487D)
Technique: protein-binding microarray
Molecule type: double-stranded DNA, one strand shown
Sample: in vitro
Tested at: 2200 nM top
Setting: 60-bp whole probe
With: salmon DNA 0.4 mg/ml
Reference: random background probes
Reading: higher = stronger binding
Residues (chain): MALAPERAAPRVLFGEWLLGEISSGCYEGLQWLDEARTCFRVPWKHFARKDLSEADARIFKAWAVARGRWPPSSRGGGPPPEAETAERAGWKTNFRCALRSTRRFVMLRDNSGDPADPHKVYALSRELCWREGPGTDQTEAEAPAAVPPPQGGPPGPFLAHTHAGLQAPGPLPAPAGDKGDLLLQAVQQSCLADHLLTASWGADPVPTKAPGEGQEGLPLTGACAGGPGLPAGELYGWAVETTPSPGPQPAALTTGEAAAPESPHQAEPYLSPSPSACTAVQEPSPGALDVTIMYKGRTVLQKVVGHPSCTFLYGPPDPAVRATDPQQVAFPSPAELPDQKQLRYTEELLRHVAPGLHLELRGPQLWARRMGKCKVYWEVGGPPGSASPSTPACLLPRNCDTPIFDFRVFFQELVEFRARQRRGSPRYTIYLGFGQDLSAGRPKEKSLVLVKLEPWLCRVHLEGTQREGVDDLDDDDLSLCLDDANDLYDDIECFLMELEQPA
Strand	fitted relative affinity
GCCTAGCACAGATGTATGAGCCTCTGTTTGTGCTAGGTCTTGATTCGCTTGACGCTGCTG	0.721 z-score
GCCTAGCACATAGGTCTCCTTCTCCTTTAGTGCTAGGTCTTGATTCGCTTGACGCTGCTG	1.24 z-score
GCCTAGCACTTAGGACTGCTTTTCGTTTAGTGCTAGGTCTTGATTCGCTTGACGCTGCTG	3 z-score
GCCTAGCACGACGAACTGGGCTATCGAGACGTGCTAGTCTTGATTCGCTTGACGCTGCTG	-0.576 z-score

Block 2
Target: Histone acetyltransferase KAT6A, winged helix 2, GST fusion (KAT6A, Homo sapiens, UniProt Q92794, residues 85-181)
Technique: protein binding microarray
Molecule type: double-stranded DNA, one strand shown
Sample: in vitro
Tested at: not given
Setting: 8-mer, flanks averaged, mean of 2 arrays, mostly near background
Reference: not given
Reading: higher = stronger binding
Target sequence (chain): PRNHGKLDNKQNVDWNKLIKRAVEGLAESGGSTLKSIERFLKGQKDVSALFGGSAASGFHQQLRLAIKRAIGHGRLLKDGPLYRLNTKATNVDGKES
Strand	E-score
ACTGCCAT	0.124
GTTGTACA	0.14
GACAAGGC	0.0944
ACTGGCCA	-0.101

Block 3
Target: Sal-like protein 4, full length isoform B (SALL4, Homo sapiens, UniProt Q9UJQ4-2, residues 1-616)
Technique: universal PBM
Molecule type: double-stranded DNA, one strand shown
Sample: in vitro
Tested at: not given
Setting: 8-mer, flanks averaged, mean of replicates
Reading: higher = stronger binding
Construct (chain): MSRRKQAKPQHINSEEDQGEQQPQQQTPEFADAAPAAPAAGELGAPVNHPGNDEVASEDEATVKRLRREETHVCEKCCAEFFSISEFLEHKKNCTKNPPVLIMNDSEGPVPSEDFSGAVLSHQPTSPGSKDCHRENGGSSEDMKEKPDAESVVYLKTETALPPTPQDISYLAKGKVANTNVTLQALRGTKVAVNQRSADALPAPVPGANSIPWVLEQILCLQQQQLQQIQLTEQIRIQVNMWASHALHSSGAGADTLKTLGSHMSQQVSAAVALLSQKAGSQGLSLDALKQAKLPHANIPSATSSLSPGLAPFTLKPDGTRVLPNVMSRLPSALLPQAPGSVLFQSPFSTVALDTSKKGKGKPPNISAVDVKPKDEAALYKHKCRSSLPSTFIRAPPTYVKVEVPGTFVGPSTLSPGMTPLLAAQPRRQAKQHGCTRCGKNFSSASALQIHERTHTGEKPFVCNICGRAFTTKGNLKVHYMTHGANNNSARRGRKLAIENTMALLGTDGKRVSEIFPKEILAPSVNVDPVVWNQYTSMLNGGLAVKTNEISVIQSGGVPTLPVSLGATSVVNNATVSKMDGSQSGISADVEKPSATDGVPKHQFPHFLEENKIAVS
Strand	E-score
CGGTTGAA	-0.0539
AAGCTAGG	-0.245
CAACTCGG	-0.279
CTTCGACC	-0.254
ATGAAGTA	0.219

Further values, each from its own experiment
Molecule	target	test	system	conditions	scale	quantity	value
PhoQ, residues 284 288 289 292 302 303 HSYLQF	PhoP, residues 12 14 15 18 19 SQCLL (Escherichia coli, UniProt P23836)	Sort-seq, refers to: YFP reporter	E. coli	PhoQ-PhoP variant library, with: 10 µM Mg2+	reference: high Mg2+ state, higher = stronger signaling	fold induction	30.5

Repeated from above (block 1):
Strand	fitted relative affinity
GCCTAGCACTTAGGACTGCTTTTCGTTTAGTGCTAGGTCTTGATTCGCTTGACGCTGCTG	3 z-score
GCCTAGCACGACGAACTGGGCTATCGAGACGTGCTAGTCTTGATTCGCTTGACGCTGCTG	-0.576 z-score
